Published values of several laboratories.
Each line is one published result; not all experiments were run side by side. ± marks the error that the study gave.
rep main protease: Replicase polyprotein 1ab, main protease (rep, Severe acute respiratory syndrome coronavirus 2, UniProt P0DTD1)
rep nsp14 N7-methyltransferase: Replicase polyprotein 1ab, nsp14 N7-methyltransferase (rep, Severe acute respiratory syndrome coronavirus 2, UniProt P0DTD1)

With `CC(C)Cc1ccc([C@H](C)C(=O)O)cc1` the inhibition was -0.132% (rep main protease; reporter gene (Gaussia luciferase), inhibitor; 20 µM).
The inhibition of `O=C1NCc2ccc(C(=O)N3CCC[C@@H]([C@H]4CCN(C(=O)c5cn[nH]c(=O)c5)C4)C3)cc2N1` is reported as 8.2% (rep main protease; enzyme activity, inhibitor; 5 µM, run 1).
`CCC(C(=O)Nc1cc(NC2CCNC2)ccc1C)n1cc(Cl)cc2nc(SCc3ccc(F)cc3)nc1-2` (stereo not drawn) has a koff of 0.028 ± 0.002 s⁻¹ (Replicase polyprotein 1ab, papain-like protease (rep, Severe acute respiratory syndrome coronavirus 2, UniProt P0DTD1); binding).
Under “hypoglycaemia (glucose ≤70 mg/dL)”, `CC[C@H](C)[C@H](NC(=O)[C@H](CC(C)C)NC(=O)[C@H](Cc1c[nH]c2ccccc12)NC(=O)[C@H](CCC(N)=O)NC(=O)[C@@H](NC(=O)[C@H](Cc1ccccc1)NC(=O)[C@H](C)NC(=O)[C@H](CCCCNC(=O)COCCOCCNC(=O)COCCOCCNC(=O)CC[C@H](NC(=O)CCCCCCCCCCCCCCCCCCC(=O)O)C(=O)O)NC(=O)[C@H](CCC(N)=O)NC(=O)[C@H](C)NC(=O)[C@@H](NC(=O)[C@H](CCCCN)NC(=O)[C@H](CC(=O)O)NC(=O)[C@H](CC(C)C)NC(=O)C(C)(C)NC(=O)[C@@H](NC(=O)[C@H](CO)NC(=O)[C@H](Cc1ccc(O)cc1)NC(=O)[C@H](CC(=O)O)NC(=O)[C@H](CO)NC(=O)[C@@H](NC(=O)[C@H](Cc1ccccc1)NC(=O)[C@@H](NC(=O)CNC(=O)[C@H](CCC(=O)O)NC(=O)C(C)(C)NC(=O)[C@@H](N)Cc1ccc(O)cc1)[C@@H](C)O)[C@@H](C)O)[C@@H](C)CC)[C@@H](C)CC)C(C)C)C(=O)N[C@@H](C)C(=O)NCC(=O)NCC(=O)N1CCC[C@H]1C(=O)N[C@@H](CO)C(=O)N[C@@H](CO)C(=O)NCC(=O)N[C@@H](C)C(=O)N1CCC[C@H]1C(=O)N1CCC[C@H]1C(=O)N1CCC[C@H]1C(=O)N[C@@H](CO)C(N)=O` is recorded as 0% (healthy subjects, single ascending dose; 5.0 mg).
`CC1=C2CC(C(=O)N[C@@H]3CN(C(=O)c4cc5ccccc5o4)Cc4nccn4C3)=CN=C2NN1` gave an inhibition of 10.7% (rep main protease; Mpro enzyme activity, inhibitor; 5 µM, high-throughput screen, single run).
For `CC(C)c1cccc(C(C)C)c1N1C(=O)c2ccc(N)cc2C1=O`, the inhibition was -0.276% (rep main protease; viral replication, Gluc reporter; SARS-CoV-2; 20 µM).
For `O=c1oc2c(O)c(O)cc3c(=O)oc4c(O)c(O)cc1c4c23`, the Hill slope was 1.52 ± 0.25 (rep nsp14 N7-methyltransferase; N7-methyltransferase activity, inhibitor, Py-FLINT).
The inhibition of `O=C1/C(=C/c2ccc(Cl)c(Cl)c2)CNC/C1=C\c1ccc(Cl)c(Cl)c1` is reported as -0.208% (rep main protease; viral replication, mKate2 reporter; SARS-CoV-2; 20 µM).
`Nc1ncnc2c([C@@H]3N[C@H](CO)[C@@H](O)[C@H]3O)c[nH]c12` has an antigen-positive cells of 0.3% (Marburg virus; antibody staining; HeLa, Musoke; 400 µM).
For `O=C(NC[C@H](NC(=O)c1cn[nH]c1-c1ccoc1)c1ccc2ccccc2c1)c1ccccc1`, the inhibition was 13.2% (rep main protease; enzyme activity, inhibitor; 5 µM, run 1).
With `NC1=N[C@@]2(c3cc(NC(=O)c4ccc(F)cn4)ccc3F)COC[C@H]2CS1` the inhibition was -0.549% (rep main protease; reporter gene (mKate2), inhibitor; 20 µM).
`CNS(=O)(=O)C[C@H]1CC[C@H](N(C)c2[nH]cnc3nccc2-3)CC1.O=C(O)/C=C\C(=O)O` has a Hill slope of 1.28 ± 0.34 (rep nsp14 N7-methyltransferase; N7-methyltransferase activity, inhibitor, Py-FLINT).
For `CC1CC(c2ccc(C(=O)O)cc2)=NN1c1ccccc1.N` (stereo not drawn), “lipophilic ligand efficiency” read 0.9 (Replicase polyprotein 1ab, nsp14 methyltransferase (rep, Severe acute respiratory syndrome coronavirus 2, UniProt P0DTD1)).
`c1cnc2c(c1)ccc1cccnc12` gave an inhibition of -0.724% (rep main protease; reporter gene (mKate2), inhibitor; 20 µM).
`O=C(NC[C@H](NC(=O)c1cncc2ccccc12)c1ccc2ccccc2c1)c1cnc[nH]1` has an inhibition of 19% (rep main protease; enzyme activity; 5 µM).
With `CCOc1nc2cccc(C(=O)OC(C)OC(=O)OC3CCCCC3)c2n1Cc1ccc(-c2ccccc2-c2nnn[nH]2)cc1` (stereo not drawn) the Hill slope was 2.62 ± 0.28 (rep nsp14 N7-methyltransferase; N7-methyltransferase activity, inhibitor, Py-FLINT).
With `Cc1c[nH]c2ncc(C(=O)N[C@H]3[C@H](CNc4cc(=O)n5ccccc5n4)CCC34CCC4)cc12` the inhibition was 17% (rep main protease; enzyme activity, inhibitor; 5 µM, run 1).
`CC[C@H](NC(=O)CCC(=O)O)C(=O)N[C@H](C(=O)N[C@@H](CC(C)C)C(=O)N[C@@H](CCC(N)=O)C(=O)Nc1ccc2c(C)cc(=O)oc2c1)C(C)(C)C`: “peak substrate concentration” 3.3 mmol/L (rep main protease; substrate).

Repeated from above:
The inhibition of `O=C1/C(=C/c2ccc(Cl)c(Cl)c2)CNC/C1=C\c1ccc(Cl)c(Cl)c1` is reported as -0.208% (rep main protease; viral replication, mKate2 reporter; SARS-CoV-2; 20 µM).
